Experimental data collected from several papers.
Parts stem from different laboratories: compare values within a part only. Substitutions count along the parent as printed.

Sample 1
Target: CCNE1, cyclin fold, Cln2 fusion (human)
Technique: yeast growth competition, sequencing
Medium: yeast
Setting: strong parent motif
Relative to: not given
Reading: higher = stronger binding
Starting sequence: CDC25A docking peptide (human); PPHRRRLLFACSP
Variant | normalised enrichment score
PPHRRRLLVACSP [F9V] | 0.617
PPHRRRALFACSP [L7A] | 0.892
PPHRRRLLFARSP [C11R] | 0.465
PPHRTRLLFACSP [R5T] | 0.104
PPHRDRLLFACSP [R5D] | -0.194
PPARRRLLFACSP [H3A] | 2.06
GPHRRRLLFACSP [P1G] | 0.828
PPHRRRLLLACSP [F9L] | 0.346
PPHRRRLCFACSP [L8C] | 1.36
PPHRRRRLFACSP [L7R] | 0.753
PPHRRFLLFACSP [R6F] | 0.281
PPHRRRLLFSCSP [A10S] | 1.64
PPHRRRLLFACSF [P13F] | 1.43
PQHRRRLLFACSP [P2Q] | 1.53
RPHRRRLLFACSP [P1R] | 1.13
PPGRRRLLFACSP [H3G] | 1.25
PEHRRRLLFACSP [P2E] | 1.64

Sample 2
Target: ABI1, truncated, D143A, DHFR fusion (Arabidopsis thaliana)
Technique: DHFR PCA, deep sequencing
Medium: yeast
Setting: methotrexate growth selection, single substitutions
With: (+)-ABA 710 µM
Relative to: wild-type fitted maximum
Reading: higher = stronger binding
Starting sequence: PYL1, truncated, DHFR fusion (Arabidopsis thaliana); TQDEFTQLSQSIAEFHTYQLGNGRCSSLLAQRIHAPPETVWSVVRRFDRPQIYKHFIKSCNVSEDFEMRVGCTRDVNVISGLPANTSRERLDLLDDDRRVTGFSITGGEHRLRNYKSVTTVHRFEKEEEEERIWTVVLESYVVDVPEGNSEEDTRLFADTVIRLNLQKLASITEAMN; partner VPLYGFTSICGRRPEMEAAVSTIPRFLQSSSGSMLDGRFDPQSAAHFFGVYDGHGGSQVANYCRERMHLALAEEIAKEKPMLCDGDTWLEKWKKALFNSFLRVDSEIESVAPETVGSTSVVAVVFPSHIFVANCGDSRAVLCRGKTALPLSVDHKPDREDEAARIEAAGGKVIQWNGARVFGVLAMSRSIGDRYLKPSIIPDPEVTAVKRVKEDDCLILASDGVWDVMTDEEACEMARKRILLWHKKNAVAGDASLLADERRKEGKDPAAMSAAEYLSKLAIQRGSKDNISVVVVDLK
Variant | relative binding score
F124Y | 110%
S150N | 98%
Q2K | 105%
T135C | 109%
L156Q | 98.4%
L156R | 94.3%
S171G | 96.9%
D3T | 110%
F103D | -8.57%
S59E | 104%
Q19R | 105%
T73E | 105%
V44M | 81.8%
V145D | 9.04%
T160A | 87.5%
S27F | 59.5%
I162T | 59%

Sample 3
Partner: ARF20 484-590 (Arabidopsis thaliana, UniProt Q9C7I9)
Technique: two-hybrid
Relative to: out of 4 tests
Reading: higher = firmer interaction
B1: ARF4 660-788 (Arabidopsis thaliana, UniProt Q9ZTX9); chain QSSSKRICTKVHKQGSQVGRAIDLSRLNGYDDLLMELERLFNMEGLLRDPEKGWRILYTDSENDMMVVGDDPWHDFCNVVWKIHLYTKEEVENANDDNKSCLEQAALMMEASKSSSVSQPDSSPTITRV
B2: IAA15 (Arabidopsis thaliana, UniProt Q9C966); chain MSPEEYVRVWPDSGDLGGTELTLALPGTPTNASEGPKKFGNKRRFLETVDLKLGEAHENNYISSMVTNDQLVGWPPVATARKTVRRKYVKVALDGAAYLRKVDLGMYDCYGQLFTALENMFQGIITICRVTELERKGEFVATYEDKDGDLMLVGDVPWMMFVESCKRMRLMKTGDAIGL
B3: ARF8 699-811 (Arabidopsis thaliana, UniProt Q9FGV1); chain NSSNQTKNFVKVYKSGSVGRSLDISRFSSYHELREELGKMFAIEGLLEDPLRSGWQLVFVDKENDILLLGDDPWESFVNNVWYIKILSPEDVHQMGDHGEGSGGLFPQNPTHL
B4: IAA13 (Arabidopsis thaliana, UniProt Q38831); chain MITELEMGKGESELELGLGLSLGGGTAAKIGKSGGGGAWGERGRLLTAKDFPSVGSKRAADSASHAGSSPPRSSSQVVGWPPIGSHRMNSLVNNQATKSAREEEEAGKKKVKDDEPKDVTKKVNGKVQVGFIKVNMDGVAIGRKVDLNAHSSYENLAQTLEDMFFRTNPGTVGLTSQFTKPLRLLDGSSEFVLTYEDKEGDWMLVGDVPWRMFINSVKRLRVMKTSEANGLAARNQEPNERQRKQPV
B5: IAA18 (Arabidopsis thaliana, UniProt O24408); chain MEGYSRNGEISPKLLDLMIPQERRNWFHDEKNSVFKTEEKKLELKLGPPGEEDDDESMIRHMKKEPKDKSILSLAGKYFSPSSTKTTSHKRTAPGPVVGWPPVRSFRKNLASGSSSKLGNDSTTSNGVTLKNQKCDAAAKTTEPKRQGGMFVKINMYGVPIGRKVDLSAHNSYEQLSFTVDKLFRGLLAAQRDFPSSIEDEKPITGLLDGNGEYTLTYEDNEGDKMLVGDVPWQMFVSSVKRLRVIKTSEISSALTYGNGKQEKMRR
B6: ARF12 500-593 (Arabidopsis thaliana, UniProt Q9XID4); chain TEIQNKQFSSSRTCTKVQMQGVTIGRAVDLSVLNGYDQLILELEKLFDIKGQLQTRNQWEIAFTDSDEDKMLVGDDPWPEFCNMVKKIFIQKRR
Residues (chain): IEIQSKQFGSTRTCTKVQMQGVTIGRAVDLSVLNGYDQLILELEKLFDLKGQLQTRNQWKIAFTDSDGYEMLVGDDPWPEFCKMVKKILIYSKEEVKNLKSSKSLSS
Sequence | positive tests
B1 (ARF4 660-788) | 0
B2 (IAA15) | 2
B3 (ARF8 699-811) | 0
B4 (IAA13) | 0
B5 (IAA18) | 0
B6 (ARF12 500-593) | 0

Sample 4
Target: NFE2L2, bZIP domain (human)
Technique: DHFR protein complementation
Medium: yeast
Setting: single substitutions, most at no-binding floor
Relative to: wild-type JUN-FOS pair
Reading: higher = stronger binding
Starting sequence: JUN, bZIP domain (human); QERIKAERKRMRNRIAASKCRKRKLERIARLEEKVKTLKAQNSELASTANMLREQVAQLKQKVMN; partner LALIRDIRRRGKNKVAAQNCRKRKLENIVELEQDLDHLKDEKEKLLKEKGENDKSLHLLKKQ
Variant | binding fitness [natural log]
L59S | -1.5
A46H | -1.38
K34W | -1.12
M51H | -1.47
R53F | -1.58
S43V | -1.41
A40N | -1.49
I28L | -1.47
R53N | -1.43
R53D | -1.53
Q41G | -1.5
K36P | -1.5
E54T | -1.24
L52F | -1.39
A40L | -1.42
S47L | -1.24
K36G | -1.41
R53P | -1.51
K34A | -1.47
K34S | -1.37
Q55G | -1.48
E54Y | -1.4
A46S | -1.31
N42H | -1.5
E32C | -1.49

Sample 5
Target: UBE2G2 UBC core domain (UniProt P60604)
Technique: yeast two-hybrid
Medium: yeast
Setting: mostly zero background
Relative to: not given
Reading: higher = stronger interaction
B7: MEX3B RING domain (UniProt Q6ZN04); chain SGLRRKGSRDCSVCFESEVIAALVPCGHNLFCMECANRICEKSEPECPVCHTAVTQAIRIF
B8: TRIM31 RING domain (UniProt Q9BZY9); chain FVNKLQEEVICPICLDILQKPVTIDCGHNFCLKCITQIGETSCGFFKCPLCKTSVRKNAIRF
B9: TRIM26 RING domain (UniProt Q12899); chain PLRSLEEEVTCSICLDYLRDPVTIDCGHVFCRSCTTDVRPISGSRPVCPLCKKPFKKENIRP
B10: MYCBP2 RING domain (UniProt O75592); chain TSLKQDADDMCMICFTEALSAAPAIQLDCSHIFHLQCCRRVLENRWLGPRITFGFISCPICKNKINHIVLKD
B11: MKRN2 RING domain (UniProt Q9H000); chain FAFQASQDKVCSICMEVILEKASASERRFGILSNCNHTYCLSCIRQWRCAKQFENPIIKSCPECRVISEFVIPSV
B12: ANAPC11 RING domain (UniProt Q9NYG5); chain GICRMAFNGCCPDCKVPGDDCPLVWGQCSHCFHMHCILKWLHAQQVQQHCPMCRQEWKFKE
B13: RNF187 RING domain (UniProt Q5TA31); chain ALPAGPAEAACALCQRAPREPVRADCGHRFCRACVVRFWAEEDGPFPCPECADDCWQRAVEP
B14: RNF152 RING domain (UniProt Q8N8N0); chain ETLSQDSLLECQICFNYYSPRRRPKLLDCKHTCCSVCLQQMRTSQKDVRCPWCRGVTKLPPGFS
B15: TRIM37 RING domain (UniProt O94972); chain SVESIAEVFRCFICMEKLRDARLCPHCSKLCCFSCIRRWLTEQRAQCPHCRAPLQLRELVN
B16: RLIM RING domain (UniProt Q9NVW2); chain SFGENDALKTCSVCITEYTEGNKLRKLPCSHEYHVHCIDRWLSENSTCPICRRAVLASGNRE
Residues (chain): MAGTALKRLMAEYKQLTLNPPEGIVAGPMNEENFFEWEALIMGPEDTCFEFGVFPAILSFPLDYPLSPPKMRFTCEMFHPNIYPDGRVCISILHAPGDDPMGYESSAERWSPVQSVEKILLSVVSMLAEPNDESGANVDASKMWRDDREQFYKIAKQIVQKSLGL
Sequence | lacZ reporter activity
QVQSRTKIEECVVCSDKKAAVLFQPCGHMCACENCANLMKKCVQCRAVVERRVPFI (MIB1 RING domain (UniProt Q86YT6)) | 0
B7 (MEX3B RING domain) | 0
B8 (TRIM31 RING domain) | 17500
B9 (TRIM26 RING domain) | 0
B10 (MYCBP2 RING domain) | 0
B11 (MKRN2 RING domain) | 0
B12 (ANAPC11 RING domain) | 0
B13 (RNF187 RING domain) | 0
B14 (RNF152 RING domain) | 0
B15 (TRIM37 RING domain) | 0
B16 (RLIM RING domain) | 0
FVKTVEDKYKCEKCHLVLCSPKQTECGHRFCESCMAALLSSSSPKCTACQESIVKDKVF (TRAF3 RING domain (UniProt Q13114)) | 0

Repeated from above (sample 2):
Variant | relative binding score
F103D | -8.57%
L156Q | 98.4%
Q19R | 105%
S150N | 98%
T160A | 87.5%
F124Y | 110%
S171G | 96.9%
V44M | 81.8%
V145D | 9.04%
D3T | 110%
S27F | 59.5%
